Measurements pooled from the literature.
Each numbered part is a random draw from the data of one study; scales do not carry over between parts.
Chain of UniProt Q07002 (whole entry, looked up): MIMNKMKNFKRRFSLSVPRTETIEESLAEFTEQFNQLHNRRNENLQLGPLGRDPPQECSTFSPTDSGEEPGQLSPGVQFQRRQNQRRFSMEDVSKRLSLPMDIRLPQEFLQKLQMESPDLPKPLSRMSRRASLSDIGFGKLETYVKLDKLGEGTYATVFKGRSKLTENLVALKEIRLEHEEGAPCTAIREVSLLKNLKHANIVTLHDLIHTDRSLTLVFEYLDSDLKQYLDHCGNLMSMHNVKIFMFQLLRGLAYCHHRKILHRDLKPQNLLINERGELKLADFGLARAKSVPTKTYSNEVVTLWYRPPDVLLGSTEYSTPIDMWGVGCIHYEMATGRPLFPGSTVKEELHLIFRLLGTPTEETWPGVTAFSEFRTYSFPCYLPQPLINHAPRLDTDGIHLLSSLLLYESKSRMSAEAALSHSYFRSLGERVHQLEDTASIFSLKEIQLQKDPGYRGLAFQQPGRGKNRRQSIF

Series 1
Target: RING finger protein unkempt homolog, zinc fingers 1-6, GST-SBP tag (UNK, Homo sapiens, UniProt Q9C0B0, residues 30-357)
Chain of UniProt Q9C0B0 (30-357, looked up): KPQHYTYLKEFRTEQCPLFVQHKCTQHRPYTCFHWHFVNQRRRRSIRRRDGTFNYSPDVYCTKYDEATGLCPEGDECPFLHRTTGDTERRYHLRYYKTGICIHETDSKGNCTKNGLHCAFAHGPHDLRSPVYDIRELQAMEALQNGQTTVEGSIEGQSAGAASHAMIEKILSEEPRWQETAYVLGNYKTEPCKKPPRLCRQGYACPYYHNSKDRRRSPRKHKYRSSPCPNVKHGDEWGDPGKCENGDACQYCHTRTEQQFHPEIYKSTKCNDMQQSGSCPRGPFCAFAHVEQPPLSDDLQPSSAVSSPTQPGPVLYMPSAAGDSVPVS
Technique: RNA Bind-n-Seq
Molecule type: RNA
Matrix: in vitro
Concentration: not given
Setting: RNA with constant flanks, human-mouse chimeric sites, ends assumed
Reference: input RNA pool
Reading: higher = stronger binding
Constant ends, left off below: GGGAGUUCUACAGUCCGACGAUC … CAACAGAGGAUUGAGCAUCA
| Strand | bound/input enrichment [ratio] |
| --- | --- |
| UUCAAAGAAAAGGGCAGUUCAUAAAUAUCAUAAGUAACUCUGGGGGAGGGAAAUUCUGUUCUUUUGUUUAAUUUUCCCCCAAAUGAAGCCAAAGUGUGUGUUGAAGAACUGAGAAAAAAU | 0.117 |
| AAACAUCUGUCUUUAAGCAUUCCAAGCGAGAAUGCUGGGGUGAUCAUUGUUGCCCAUAUAUAGUAAUACUGAGCUUUAAUGCUGUUCCAUGUUACAUCUUUCCUUCACUCCAGAAUUGUU | 0.409 |
| UGUGCAUAUGAUGCUUGGAGAUGGUUUUGCAAAAGCAGAAAUCGCUGCAAGGUCAUUACAAUAGAUAAAAGUGGUAUUUUAAACCUUUGAAAUAAAUGGAUGUAACUGUACCUUGGUACA | 0.42 |
| AAUUUCCUGUCAUACUUUUUAGACAUUCACAUCAGACUUACAGAGCAUUGGGCCUCUUUCUAGGUUUGUGUUAUUUCUCAGCUAUGGAUAUGAUCAAAUGAGAACACUGGCAGCCAGAUG | 0.557 |
| AAAGAGAAACUAAAGCAACUAAUAGAGAAGAGGAUUGGCAAAGAGAAUUUCAUAGAGAAACUAGGAUUUAUUAGCAAAACAUGAGUUUAUUCCAGAGGCAUCUCAGAACCCCAGCCAAAC | 10.2 |
| GGAAUUGCUGAUUCAAGUAAGUUUGAGUAUCACAAUGUUAGCUUUCUAAUUCCAUAAAAGUACUUGGUUUUUACAGUAACCCCACAUACAUCACCCCAGCGCCAUUUGUAAAGAGCAACU | 0.774 |
| UCAUUUUUCUCUUUUCUUUCUUUCCUUUAGGAAAAGCAGAUUAGACUGUAAGAAAAGAAAACAGAAGCCAUGUUUCGAAGACCUGUGUUACAGGUAUUUCGUCAGUUUGUAAGACAUGAG | 0.237 |
| UCCUGGUCGUGUCCCAGUGCAGGACGAUGUGAACAAAAACUCAAAGCGGCCCUUUCUUUGUAGUUCUUGAUUCUCGAAAUGUGCUAUUAUUGUUUGUCUUUUUUUUUUUUUUUUUAAAGA | 1.01 |

Series 2
Target: Ras GTPase-activating protein-binding protein 1, RRM domain (G3BP1, Homo sapiens, UniProt Q13283)
Chain of UniProt Q13283 (whole entry, looked up): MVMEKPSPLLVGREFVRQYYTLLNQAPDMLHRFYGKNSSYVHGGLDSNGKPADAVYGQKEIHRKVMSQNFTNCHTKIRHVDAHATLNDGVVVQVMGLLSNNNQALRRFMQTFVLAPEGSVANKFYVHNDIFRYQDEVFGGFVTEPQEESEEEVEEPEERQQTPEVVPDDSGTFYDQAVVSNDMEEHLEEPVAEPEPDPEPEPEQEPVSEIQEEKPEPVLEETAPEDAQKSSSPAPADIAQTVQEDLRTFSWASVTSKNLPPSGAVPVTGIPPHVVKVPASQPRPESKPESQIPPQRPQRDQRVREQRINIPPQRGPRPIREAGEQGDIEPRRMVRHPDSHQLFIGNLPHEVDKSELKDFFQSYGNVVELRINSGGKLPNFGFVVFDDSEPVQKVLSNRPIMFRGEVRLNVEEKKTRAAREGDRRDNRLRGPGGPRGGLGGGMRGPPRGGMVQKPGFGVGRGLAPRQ
Technique: RNA Bind-n-Seq
Molecule type: RNA
Matrix: in vitro
Concentration: 1 µM
Setting: whole 134-nt RNA, ends assumed
With: 150 mM KCl
Reference: input library
Reading: higher = stronger binding
Constant ends, left off below: GGGAGUUCUACAGUCCGACGAUC … UGGAAUUCUCGGGUGUCAAGG
| Strand | log2 enrichment |
| --- | --- |
| CUCAAGUCCUGUGCUACACAUCGUAUGUACCGAAUCGGUUUGGUUUUUGGAGGAAAGUAUUAUGUUACGCCGUUCGGAUCUGCACUUCCA | -0.168 |
| UUUUAUGUGGAGUUAUGAAGACCUACAGGCAGAGAGAGAAACAGGGGAGCAAGGUGCAAGAGUCCACAAAGGGACCUGAUGAAGCGAAGA | 0.126 |
| GCAGGAAGUAAAAACAAAUGGAAAUGCUUCGGAUAGUGGCAGGGGUGAGGGUUGCUAAGGAAAGGGUGGGAUGGGAGUGGGUAAAGAGUU | 0.599 |
| GCAGGAAGUAAAAACAAAUGGAAAUGCUUCGGAUAGUGGCAGGGGUGGGGGUUGCUAAGGAAAGGGUGGGAUGGGAGUGGGUAAAGAGUG | 0.757 |
| GUCCUGUGCUACACAUCGUAUGUACCGAAUCGGGAAAAAAAGGGUUUUUGGGAAAGGGAAAGUAUUAUGUUACGCCGUUCGGAUCUGCAC | 0.049 |
| UCCUCAAGUCCUGUGCUACACAUCGUAUGUACCGAAUCGGAGGAGGGAGGGGAAAGUAUUAUGUUACGCCGUUCGGAUCUGCACUUCCAG | -0.153 |
| UCAAGUCCUGUGCUACACAUCGUAUGUACCGAAUCGGGGAAGGAAGGGGAAGGGGAAAGUAUUAUGUUACGCCGUUCGGAUCUGCACUUC | 0.502 |
| AAGUCCUGUGCUACACAUCGUAUGUACCGAAUCGGGGCCCCGGGGCCCCGGCCCCGGAAAGUAUUAUGUUACGCCGUUCGGAUCUGCACU | -0.482 |

Series 3
Target: RNA binding protein fox-1 homolog 2, RRM domain, GST-SBP tag (RBFOX2, Homo sapiens, UniProt O43251-10, residues 100-194)
Technique: RNA Bind-n-Seq
Molecule type: RNA
Matrix: in vitro
Concentration: 365 nM
Setting: natural RNA segment, single round, ends assumed
Reference: no-protein control
Reading: higher = stronger binding
Constant ends, left off below: GGGAGUUCUACAGUCCGACGAUC … UGGAAUUCUCGGGUGCCAA
Residues (chain): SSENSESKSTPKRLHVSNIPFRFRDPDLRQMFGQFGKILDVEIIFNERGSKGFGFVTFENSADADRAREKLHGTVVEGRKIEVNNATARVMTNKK
| Strand | RBNS enrichment (R) |
| --- | --- |
| UAUUUAAAGUUAGCUUCUUUCCACUUCUGUGUGUGCUUGUGUGAUUUCAUUGUUUUAAUCAAGGGCUUAAGGUGUCCUCAUUCUUGGACAUGAGAUGUAUUUAAGGAAAG | 1.21 |
| CCCCGAUAUGCCCCGGCACUGAAGUCGGGACACAAUCAGCUUUAACCAAUGGAUGAGGGGGGUGGCCACAGGAGAUGGGGAGAGGAGUCUGAACUAAACCCCUGGCUUUU | 0.648 |
| UAGCAUUGAUAUAUAUAUAUUAUAUAUCACCCUUUAGAUCUUGAUUUCUUGGUCAUUUCUCAACCUGAGGUGCAUAGCAUAUUCCCACAUUCCAUUUUGGUAGCAAUAUG | 0.328 |
| GCUGUGUCCUGUCUACCUGUGUGUUCUCUGACUACCGCACUGGCCAUUAAAUAUGGCAGAGACUGCCCACCGCUGUCCUGAGGAAGUGUUUGUGGGGGGAGGGCUGGGAA | 1.4 |
| AAAUUUUUUUUGAAUGUGUGGAAGUAAUUUUAGUAUAAUUAGAUUUUUUCCAUAUUUUUGAAAGAUUUUUCAGAUGUGAACAUUAAAAAUAGGGAUUAAAUGUCUAGGCU | 1.29 |
| UGCACAGGCCCCCCAGGCCUAGGUUCCCUUGGAGGCUGUGGCAAGUCCUCAAUCCUGUGUCCCAGAGGUCCCUCUGGGCCACAACCCAACCCUUCUCACUCUCCUCAGUG | 0.213 |
| GGCCUGGGGGGGAUGGUAUAUGGCCCUUUCCCCACCAGGCGCUAAGGGGAACACCCCCUUCCCCAGGUCUUUUAUUUGUUUAAGUUAUUUUUGCACAAAUGACUCUUUUA | 0.405 |
| UGCCCAGGAUAGCUCUCUUCUAUAGCCAGGAUGUGGAGCUUAAGGAGACUCCAAUGUUUACUUUCUCCAGUCCUAGCUCUGCCAUAUAAACACUGUCUCAUGUUGUGCUU | 0.39 |

Single results of other studies
| SMILES | target | assay | setting | measurement | result |
| --- | --- | --- | --- | --- | --- |
| N#CC1(c2ccccn2)CCN(Cc2cc(C(=O)N3CCCC3)c(=O)n3ccccc23)CC1 | Cyclin-dependent kinase 18 (CDK18, Homo sapiens, UniProt Q07002) | cell-free assay, competition with immobilised ligand | 1 µM | remaining binding | 100% |

Some of these lines once more (series 3):
| Strand | RBNS enrichment (R) |
| --- | --- |
| UAUUUAAAGUUAGCUUCUUUCCACUUCUGUGUGUGCUUGUGUGAUUUCAUUGUUUUAAUCAAGGGCUUAAGGUGUCCUCAUUCUUGGACAUGAGAUGUAUUUAAGGAAAG | 1.21 |
| GGCCUGGGGGGGAUGGUAUAUGGCCCUUUCCCCACCAGGCGCUAAGGGGAACACCCCCUUCCCCAGGUCUUUUAUUUGUUUAAGUUAUUUUUGCACAAAUGACUCUUUUA | 0.405 |
| UGCCCAGGAUAGCUCUCUUCUAUAGCCAGGAUGUGGAGCUUAAGGAGACUCCAAUGUUUACUUUCUCCAGUCCUAGCUCUGCCAUAUAAACACUGUCUCAUGUUGUGCUU | 0.39 |
